# Measured values of several laboratories.
# Compare with care: the assays were run in different laboratories. Numbers after ± are the reported error.
Compound,test,test system,setting,how to read,measurement,result
C=CC(=O)N1C[C@H](C)N(c2nc(OC[C@@]34CCCN3C[C@H](F)C4)nc3c(F)c(-c4ccc(F)c5sc(N)c(C#N)c45)c(C(F)(F)F)cc23)C[C@H]1C,item: phospho-ERK,mouse MIA PaCa-2 Matrigel plug,"30 mg/kg single dose, 48 h",,inhibition,57%
O=c1[nH]c2ccccc2n1CCCCCN1CCN(c2ccc(F)cc2)CC1,,mouse,"dose not given, highest dose tested, together with: acetic acid",,inhibition of writhing,≤ 87%
CC(C)c1cnc(-c2cc(Cl)ccc2F)cc1Nc1ccncc1C(=O)NC(CO)CO,item: pSMAD2,"MC-38 tumour-bearing mouse, tumour","30 mg/kg, 0 to 8 h average",relative to: vehicle,inhibition,56%
C[C@H]1CN(C(=O)c2cn(-c3ccnc(N)n3)c3cc(C#CC4(O)CCCCC4)ccc23)CCN1,,"B16-BL6, mouse, lung metastasis model",dose not given,,inhibition of lung metastasis,> 90%
COc1c2c(cc3oc(COC4OC(CO)C(O)C(O)C4O)cc(=O)c13)OC(C(C)(C)O)C2 (centres unmarked),ear edema weight,"mouse, xylene ear edema","oral, 1 mg/kg",relative to: vehicle,inhibition,16%
"CC(=O)C12NC(C)(C)CC1(C)C(=O)C1=C2c2c(c3c4n2C(C)(C)CC2=C4C4(CC(C)(C)NC(C)(C4)C2=O)CC3(C)C)C(=O)C(C)(C)N1 (single isomer, unassigned; (+))",acetic acid-induced writhing,mouse,"intraperitoneal, 5 mg/kg, 0.5 h, writhes counted over 30 min",,inhibition,87.1 ± 2.3%
COC(=O)C1OC(Oc2c(-c3ccccc3)oc3cc(O)c(O)c(O)c3c2=O)C(O)C(O)C1O (centres unmarked),paw oedema,mouse carrageenan paw oedema,"1 mg/kg, 0 h",,inhibition,9.2%
CCCC1OC2CC3C4CCC5=CC(=O)C=CC5(C)C4C(O)CC3(C)C2(C(=O)COC(=O)CN(C)C)O1 (centres unmarked),,"mouse, xylene-induced ear edema","intraperitoneal, equivalent to 200 µg/kg budesonide, 1 h before xylene",,inhibition of ear edema,46.7%
